Measurements from different studies.
Numbered parts are unrelated; each lists some results of a single study. Positions count from the first letter of the parent shown.

Block 1 — method: protein-binding microarray; form: double-stranded DNA, one strand shown; sample: in vitro; concentration: 2200 nM top; setting: 60-bp whole probe; together with: salmon DNA 0.4 mg/ml; baseline: random background probes; reading: higher = stronger binding; constant ends, left off below: GCCTAGCAC … GTCTTGATTCGCTTGACGCTGCTG
Target: Interferon regulatory factor 7, full length, phosphomimetic (IRF7, Homo sapiens, UniProt Q92985, residues 1-503, S471D/S472D/S475D/S476D/S477D/S483D/S484D/S487D)
Sequence of UniProt Q92985 (whole entry, unmodified, looked up): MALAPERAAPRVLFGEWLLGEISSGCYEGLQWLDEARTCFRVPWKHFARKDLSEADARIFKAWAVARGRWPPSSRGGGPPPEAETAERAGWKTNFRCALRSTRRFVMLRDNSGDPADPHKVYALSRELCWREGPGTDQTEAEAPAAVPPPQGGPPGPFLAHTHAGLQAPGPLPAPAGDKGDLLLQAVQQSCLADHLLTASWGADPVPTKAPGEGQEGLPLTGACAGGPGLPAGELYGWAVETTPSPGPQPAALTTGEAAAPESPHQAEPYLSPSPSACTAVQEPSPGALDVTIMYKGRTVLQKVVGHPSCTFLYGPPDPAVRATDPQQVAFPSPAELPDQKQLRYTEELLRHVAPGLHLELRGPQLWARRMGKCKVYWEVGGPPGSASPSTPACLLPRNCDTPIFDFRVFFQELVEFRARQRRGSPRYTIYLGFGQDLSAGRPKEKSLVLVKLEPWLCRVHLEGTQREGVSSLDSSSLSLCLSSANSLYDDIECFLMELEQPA
Strand	fitted relative affinity
GACGGTTTCGGTAGCGGGACGTGCTAG	3.37 z-score
TTAGAACTGCTTCTCCTTTAGTGCTAG	0.853 z-score
TCAATTTTTACATTATTACTGTGCTAG	0.932 z-score
TCTGTTTTTGCTTTCCTTCAGTGCTAG	5.32 z-score
TCATCTTCAGCACTCGGACTGTGCTAG	1.02 z-score
TTAGGACTGCTTACCCTTTAGTGCTAG	0.606 z-score
TTTGGACACAGACACAGGCCGTGCTAG	-0.308 z-score
TTTTTTTTTTTTTTTGTATTGTGCTAG	2.49 z-score
AACTTTGGTATCTGGCATCTGTGCTAG	0.572 z-score
GACGGTATCCTTCTCCTTACGTGCTAG	1.66 z-score
GTAGGTATCGACTTTCGGTTAGTGCTA	6.02 z-score
GACGGTATCCTTTTCCTGATGTGCTAG	1.36 z-score
GCCGGTTTCGGTTTCGGGACGTGCTAG	16.5 z-score
TTAGGACTGGCACTGGGTTAGTGCTAG	-0.853 z-score
CCCTAGGGGCTCTCAGAGATGTGCTAG	-2.09 z-score
AAAGTTATCACTTCCAAAGTGTGCTAG	0.461 z-score
GACGGTCTCGGGACTGGGGACGTGCTA	-0.411 z-score

Block 2 — method: protein binding microarray; form: double-stranded DNA, one strand shown; sample: in vitro; concentration: not given; baseline: not given; reading: higher = stronger binding
Target: Histone acetyltransferase KAT6A, both winged helices, GST fusion (KAT6A, Homo sapiens, UniProt Q92794, residues 1-181)
Setting: 8-mer, flanks averaged, mean of 2 arrays, mostly near background
Target sequence (chain): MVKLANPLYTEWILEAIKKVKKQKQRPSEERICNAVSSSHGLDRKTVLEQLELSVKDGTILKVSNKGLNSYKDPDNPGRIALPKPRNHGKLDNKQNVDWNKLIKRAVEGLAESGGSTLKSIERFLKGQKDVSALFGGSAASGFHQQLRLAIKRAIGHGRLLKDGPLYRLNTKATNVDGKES
Strand	E-score
AGTGGTGG	-0.249
ATGGTGTA	-0.115
ACAGGCTC	-0.0969
ACGCTCGC	0.22
GCACTCAA	-0.0527
AGGTATAC	-0.0607
ATCTATTG	-0.136
CTGTCCTA	-0.225
CCCAGTCG	-0.0707
AGCGCAGA	0.196
GAAGTCGA	-0.113
TCGGGGAA	0.0878
AGGCAAAT	-0.203
AAAATAAG	-0.211
ATCCAATC	-0.113
TCCTACAA	-0.143
CACGTGAG	-0.0303
GCACCCAC	0.00178
ATCAGCCG	0.207
CGACCGGA	0.147
ACAGTCCA	-0.346
CAGCGGCC	0.232

Block 3 — target: CCNA2, cyclin fold, Cln2 fusion (human); method: yeast growth competition, sequencing; sample: yeast; setting: strong parent motif; baseline: not given; reading: higher = stronger binding
Starting sequence: GMNC docking peptide (human); KNAKRNLSSEFAN
Substitution	normalised enrichment score
N6S	4.7
K4D	0.295
N6Y	-0.112
N2D	3.73
A3N	0.653
N2K	5.98
S9Y	5.39
E10S	2.51
S9I	5.59
S8V	4.97
F11H	0.205
K4Y	4.2
A12R	4.73
S9D	4.8

Block 4 — method: RNA Bind-n-Seq; form: RNA; sample: in vitro; concentration: 365 nM; baseline: no-protein control; reading: higher = stronger binding
Target: RNA binding protein fox-1 homolog 2, RRM domain, GST-SBP tag (RBFOX2, Homo sapiens, UniProt O43251-10, residues 100-194)
Setting: natural RNA segment, single round, ends assumed
Constant ends, left off below: GGGAGUUCUACAGUCCGACGAUC … UGGAAUUCUCGGGUGCCAA
Target sequence (chain): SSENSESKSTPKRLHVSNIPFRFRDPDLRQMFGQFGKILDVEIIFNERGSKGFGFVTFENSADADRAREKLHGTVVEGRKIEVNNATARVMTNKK
Strand	RBNS enrichment (R)
AUCUGGACUUAUUUUUGGACUUAGUGCAACAGGUUGAGGCUAAAACAAAUCUCAGAACAGUCUGAAAUACCUUUGCCUGGAUACCUCUGGCUCCUUCAGCAGCUAGAGCU	0.422
AACAGACUUGGGUUUUCCCAAUACCUGACUAUACUUUUGUGAUUCAGUUCAGCUUAAAGAACGCCAGUUAGGCCGGGCGUGGUGGCGCACGUCUUUAAUCCCAGCACUUG	0.386
CCAUUUCUCUUUGUAGAUAAAAAGCAUUAUCUAUGAUUGUUGUAUAAUAAAUUGAUUUUUACAUUAAUGCAUGUUGCGAGUUUUAUUUGGUUCAAAGCAGUUAAAAUGUA	2.83
AGCCCACAGCCCGCACUGCCGGCUCACUUGGGUCCUUCCUCGAUAGCUUUGGGCAGAGCCCUUGCUUCCUGGCUGCUUCAGGGCUCAGGGGCUCCCAGCCCUCCUUCCCA	0.233
AGAACUGUGGUCUCUGUGGAGAACCUAGUACAGAGCCUGAGCAAGGCAAUGGACCACCUCCUUUUCCUCAAACUGAUGGAUCACCACUGUUAAUCUAUACCAGGUGUGAA	0.302
GUAUUUACUUAACAAGAUUUAGCUCUUAGUUCUUCAAGUAAAAUUAAAGUCUCUUGUGUAAGAGCCAACACAUGCCCAGCUGCGGAUGGGAGCUGUUCCUGGACAGCCUU	0.318
AUCACUUUAAUUGUAAUGAUAGAUAAAUAAGACAGGACAAACUACAGUUUGUCUCAGAGGAAUCCAAGGAUUCUUUUUCAGACAAGUUGUAGGUCCCGCAUACAUGUCCA	0.282
AACACCAGACUGAAGCACAUGUAAUAUAGACUGUGUAUGUUUACAAUGUUGUGUAUAAAUGGGACACUUUGCCCUCUACCACCUCCCCUUUGGUUGUAUGAUUUUCUUCU	0.449
AUAGUCAAAACAAAUCGGUGCCACCCGGCCGUGACAAAUCCUAGUAGAUUCUGUGCAUGUGGAGCGGCCGCGAAGAGGUGACACCGUUUGGGGCUGUGUCCUUAUUUUAU	12.1
CCAGGACCCUGGGACAUAGAUAAAGCCCGCCUCCAGUCCCUGGGUGCUGGAACAGAUUGUCUGGGAGGCUAGAGCCCUGCCUGUAGAGAAAACACUCUUCUCAGGAGUAG	0.438
UCUGAGUCGAUAGAAGCAGUGGUCAUCGUGUGUACUCCGACAUCUGAUGCUGUUCUCGAAAGAGAGACUCUCUGACAAUUUUUUUUUAACUUGAAUUUUUAGGUCAGCCC	0.538
UUGGAUGCAUUUUUCAUCAGGCUCAGUGGCUAGCAUCAGUGAACAUUCAGUUUCAGAGGGACAGUUUUGAGGAUUAAGACACUUGGAAACAGAAGAACUCUGGUAAUGCU	1.36

Block 5 — method: RNA Bind-n-Seq; form: RNA; sample: in vitro; concentration: 200 nM; setting: whole 134-nt RNA, ends assumed; together with: 150 mM KCl; baseline: input library; reading: higher = stronger binding
Target: Ras GTPase-activating protein-binding protein 1, full length (G3BP1, Homo sapiens, UniProt Q13283)
Sequence of UniProt Q13283 (whole entry, looked up): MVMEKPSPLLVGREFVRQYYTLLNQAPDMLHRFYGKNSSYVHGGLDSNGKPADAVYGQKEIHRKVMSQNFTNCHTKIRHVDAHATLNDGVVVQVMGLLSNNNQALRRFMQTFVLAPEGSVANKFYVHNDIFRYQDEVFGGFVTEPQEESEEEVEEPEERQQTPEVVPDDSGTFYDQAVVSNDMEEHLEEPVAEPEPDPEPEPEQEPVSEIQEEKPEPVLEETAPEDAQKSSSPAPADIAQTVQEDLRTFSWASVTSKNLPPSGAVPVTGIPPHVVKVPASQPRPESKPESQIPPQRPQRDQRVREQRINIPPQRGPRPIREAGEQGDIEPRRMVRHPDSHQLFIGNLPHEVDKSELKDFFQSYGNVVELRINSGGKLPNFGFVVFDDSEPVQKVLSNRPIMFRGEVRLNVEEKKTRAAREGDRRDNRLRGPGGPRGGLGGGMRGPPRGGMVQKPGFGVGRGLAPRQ
Constant ends, left off below: GGGAGUUCUACAGUCCGACGAUC … UGGAAUUCUCGGGUGUCAAGG
Strand	log2 enrichment
GUCCUGUGCUACACAUCGUAUGUACCGAAUCGGCCCCCGGGGCCCCCGGGGCCCCCGGGAAAGUAUUAUGUUACGCCGUUCGGAUCUGCA	-0.392
AAGUCCUGUGCUACACAUCGUAUGUACCGAAUCGGUUUUUGGUUUUUGGAAAAAGGAAAGUAUUAUGUUACGCCGUUCGGAUCUGCACUU	-1.36
AGUCCUGUGCUACACAUCGUAUGUACCGAAUCGGGGCCCCCGGCCCCCGGCCCCCGGAAAGUAUUAUGUUACGCCGUUCGGAUCUGCACU	-0.82
GCAGGAAGUAAAAACAAAUGGAAAUGCUUCGGAUAGUGGGAGGGGUGGGGGUUGCUAAGGAAAGGGUGGGAUGGGAGUGGGUAAAGAGUU	1.02
UCCUGUGCUACACAUCGUAUGUACCGAAUCGGUUUUUUGGGGUUUUUUGGUUUUUUGGGGAAAGUAUUAUGUUACGCCGUUCGGAUCUGC	-0.605
GUCCUGUGCUACACAUCGUAUGUACCGAAUCAAACCCCCCCAAACCCAAACCCCCAAAAAAGUAUUAUGUUACGCCGUUCGGAUCUGCAC	0.048
UAACUUUAGAGGAGGAUCUGAUGGAUAUGGCAGUGGACGUGGAUUUGGGGAUGGCUAUAAUGGGUAGGGAGGAGGACCUGGAGGUGGCAA	0.646
UGUUUUAAGGUUGCCAACUUUGCAACAAUGGAAGAUGAAGAAGAGCUAGAAGAGCGUCCUCACAAGGACUGGGAUGAGAUCAUUCCAGAG	-1.26

Block 6 — method: protein-binding microarray; form: double-stranded DNA, one strand shown; sample: in vitro; concentration: not given; reading: higher = stronger binding
Target: Hepatocyte nuclear factor 3-beta, forkhead domain (FOXA2, Homo sapiens, UniProt Q9Y261, residues 142-269)
Setting: k-mer, scored over probes, only values ≥0.25
Residues (chain): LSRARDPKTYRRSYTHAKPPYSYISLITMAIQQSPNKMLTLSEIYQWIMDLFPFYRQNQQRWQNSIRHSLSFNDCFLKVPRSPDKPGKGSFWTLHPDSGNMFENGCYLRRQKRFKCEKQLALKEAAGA
Strand	E-score
AAACAACA	0.348
ATGTGTAA	0.331
AATATTTA	0.402
ACAATTAT	0.307
ACACGATA	0.295
GTTTATGA	0.254
ATACAAAA	0.325
ACATAAAC	0.329
ATACAATA	0.321
AACATGTG	0.274
